Published values gathered from unrelated publications.
Protocols differ between the studies behind these lines. Values joined by “and” are separate records of one study, mostly repeats; a detail may differ. ± marks the error that the study gave.
GBA2: Beta-glucosidase (GBA2, Homo sapiens, UniProt Q9HCG7)
Sequence of UniProt Q9HCG7 (whole entry, looked up): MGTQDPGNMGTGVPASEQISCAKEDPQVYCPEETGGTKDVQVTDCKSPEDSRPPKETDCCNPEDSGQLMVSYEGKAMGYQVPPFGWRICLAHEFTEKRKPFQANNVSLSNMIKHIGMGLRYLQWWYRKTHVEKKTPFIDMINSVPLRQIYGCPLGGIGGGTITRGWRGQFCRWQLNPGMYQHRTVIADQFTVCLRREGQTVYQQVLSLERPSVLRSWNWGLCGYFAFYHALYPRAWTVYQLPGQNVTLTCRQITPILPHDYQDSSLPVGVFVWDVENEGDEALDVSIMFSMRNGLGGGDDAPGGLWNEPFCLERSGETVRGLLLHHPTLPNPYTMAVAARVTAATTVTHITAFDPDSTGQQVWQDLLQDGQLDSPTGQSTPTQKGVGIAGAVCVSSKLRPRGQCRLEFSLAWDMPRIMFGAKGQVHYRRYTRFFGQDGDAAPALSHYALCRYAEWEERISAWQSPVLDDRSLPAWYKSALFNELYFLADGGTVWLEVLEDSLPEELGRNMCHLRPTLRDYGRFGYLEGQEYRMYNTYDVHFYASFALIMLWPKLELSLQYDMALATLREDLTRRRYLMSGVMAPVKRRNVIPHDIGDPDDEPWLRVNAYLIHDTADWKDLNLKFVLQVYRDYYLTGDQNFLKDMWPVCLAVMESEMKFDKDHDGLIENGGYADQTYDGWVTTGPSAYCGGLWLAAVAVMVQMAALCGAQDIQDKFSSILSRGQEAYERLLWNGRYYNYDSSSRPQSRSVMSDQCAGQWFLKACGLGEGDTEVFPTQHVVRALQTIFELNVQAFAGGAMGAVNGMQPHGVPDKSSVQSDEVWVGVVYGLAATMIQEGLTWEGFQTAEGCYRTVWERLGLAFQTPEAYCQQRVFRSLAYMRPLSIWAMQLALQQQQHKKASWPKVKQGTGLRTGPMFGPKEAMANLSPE
CASP3: Caspase-3 (CASP3, Homo sapiens, UniProt P42574)
Sequence of UniProt P42574 (whole entry, looked up): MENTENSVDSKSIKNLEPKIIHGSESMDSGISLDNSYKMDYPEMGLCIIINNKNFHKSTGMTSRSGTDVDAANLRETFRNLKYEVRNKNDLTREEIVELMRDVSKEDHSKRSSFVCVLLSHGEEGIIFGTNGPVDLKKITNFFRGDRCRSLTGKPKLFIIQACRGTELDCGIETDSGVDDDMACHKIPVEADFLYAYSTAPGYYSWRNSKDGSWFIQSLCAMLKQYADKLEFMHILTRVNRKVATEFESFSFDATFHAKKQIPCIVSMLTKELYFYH
TARDBP aggregated: TAR DNA-binding protein 43, aggregated (TARDBP, Homo sapiens, UniProt Q13148)
Sequence of UniProt Q13148 (whole entry, looked up): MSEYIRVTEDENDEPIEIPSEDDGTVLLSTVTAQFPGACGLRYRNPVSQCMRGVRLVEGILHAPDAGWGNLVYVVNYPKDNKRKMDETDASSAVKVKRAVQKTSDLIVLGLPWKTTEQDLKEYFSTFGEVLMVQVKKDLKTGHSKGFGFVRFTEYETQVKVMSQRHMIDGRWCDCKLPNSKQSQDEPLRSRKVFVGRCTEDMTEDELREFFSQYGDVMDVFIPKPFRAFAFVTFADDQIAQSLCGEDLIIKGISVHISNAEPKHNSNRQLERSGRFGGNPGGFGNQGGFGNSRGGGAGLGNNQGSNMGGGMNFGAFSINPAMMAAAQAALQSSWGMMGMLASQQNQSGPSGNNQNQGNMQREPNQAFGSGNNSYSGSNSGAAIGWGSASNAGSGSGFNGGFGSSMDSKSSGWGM
T1: hairpin RNA, UUCG tetraloop capped P1; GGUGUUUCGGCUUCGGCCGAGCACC
Sequence of UniProt O60674 (whole entry, looked up): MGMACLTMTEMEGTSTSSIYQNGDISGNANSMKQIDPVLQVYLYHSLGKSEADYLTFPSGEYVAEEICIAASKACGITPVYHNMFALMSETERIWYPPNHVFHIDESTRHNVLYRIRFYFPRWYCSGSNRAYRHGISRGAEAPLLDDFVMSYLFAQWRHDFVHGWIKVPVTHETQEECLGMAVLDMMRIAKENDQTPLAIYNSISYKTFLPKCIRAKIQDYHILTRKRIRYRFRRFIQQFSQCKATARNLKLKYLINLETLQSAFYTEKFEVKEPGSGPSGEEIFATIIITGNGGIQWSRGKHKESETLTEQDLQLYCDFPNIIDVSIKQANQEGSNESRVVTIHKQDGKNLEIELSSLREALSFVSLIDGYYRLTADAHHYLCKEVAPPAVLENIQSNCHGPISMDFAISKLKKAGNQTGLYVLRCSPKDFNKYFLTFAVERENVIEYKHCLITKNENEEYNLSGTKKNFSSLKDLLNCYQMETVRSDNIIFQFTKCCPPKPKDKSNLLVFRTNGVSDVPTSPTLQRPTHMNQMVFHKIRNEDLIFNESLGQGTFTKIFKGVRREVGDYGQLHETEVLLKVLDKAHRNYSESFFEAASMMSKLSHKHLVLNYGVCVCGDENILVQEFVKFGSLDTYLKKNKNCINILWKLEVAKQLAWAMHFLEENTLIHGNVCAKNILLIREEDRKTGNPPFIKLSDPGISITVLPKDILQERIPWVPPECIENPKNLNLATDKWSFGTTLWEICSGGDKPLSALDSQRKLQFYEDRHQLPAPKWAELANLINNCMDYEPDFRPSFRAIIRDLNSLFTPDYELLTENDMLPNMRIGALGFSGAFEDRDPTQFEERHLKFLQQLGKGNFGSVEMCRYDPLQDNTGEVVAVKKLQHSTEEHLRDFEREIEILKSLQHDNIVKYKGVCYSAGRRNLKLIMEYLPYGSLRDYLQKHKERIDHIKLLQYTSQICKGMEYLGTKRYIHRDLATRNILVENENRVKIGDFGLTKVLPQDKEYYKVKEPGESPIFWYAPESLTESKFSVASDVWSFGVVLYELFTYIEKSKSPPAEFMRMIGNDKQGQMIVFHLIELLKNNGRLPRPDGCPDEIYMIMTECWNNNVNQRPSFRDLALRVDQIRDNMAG
Sequence of UniProt Q9Y6G9 (whole entry, looked up): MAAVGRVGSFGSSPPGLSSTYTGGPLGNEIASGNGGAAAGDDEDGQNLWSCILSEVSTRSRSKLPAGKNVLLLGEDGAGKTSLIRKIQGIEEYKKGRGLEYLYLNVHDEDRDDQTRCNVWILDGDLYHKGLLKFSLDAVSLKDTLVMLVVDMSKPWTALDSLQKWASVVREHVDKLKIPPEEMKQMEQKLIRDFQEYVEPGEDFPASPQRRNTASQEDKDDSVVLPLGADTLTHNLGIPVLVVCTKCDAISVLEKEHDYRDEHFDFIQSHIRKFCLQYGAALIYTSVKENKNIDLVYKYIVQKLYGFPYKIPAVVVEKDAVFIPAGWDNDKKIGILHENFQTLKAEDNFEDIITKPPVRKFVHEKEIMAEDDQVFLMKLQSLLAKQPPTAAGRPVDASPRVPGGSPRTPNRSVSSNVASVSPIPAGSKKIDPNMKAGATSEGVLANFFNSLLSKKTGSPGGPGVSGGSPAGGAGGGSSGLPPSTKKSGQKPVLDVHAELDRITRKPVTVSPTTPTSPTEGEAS
Sequence of UniProt P06748 (whole entry, looked up): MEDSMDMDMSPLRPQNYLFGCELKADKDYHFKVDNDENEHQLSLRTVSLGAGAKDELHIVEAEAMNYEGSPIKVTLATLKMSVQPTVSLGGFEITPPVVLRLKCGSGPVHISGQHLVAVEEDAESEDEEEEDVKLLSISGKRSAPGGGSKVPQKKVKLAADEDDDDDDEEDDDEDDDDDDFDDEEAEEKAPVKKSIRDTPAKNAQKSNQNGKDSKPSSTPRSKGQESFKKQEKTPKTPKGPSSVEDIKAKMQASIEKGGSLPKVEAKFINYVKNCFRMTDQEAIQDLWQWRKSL
Sequence of UniProt P15291 (whole entry, looked up): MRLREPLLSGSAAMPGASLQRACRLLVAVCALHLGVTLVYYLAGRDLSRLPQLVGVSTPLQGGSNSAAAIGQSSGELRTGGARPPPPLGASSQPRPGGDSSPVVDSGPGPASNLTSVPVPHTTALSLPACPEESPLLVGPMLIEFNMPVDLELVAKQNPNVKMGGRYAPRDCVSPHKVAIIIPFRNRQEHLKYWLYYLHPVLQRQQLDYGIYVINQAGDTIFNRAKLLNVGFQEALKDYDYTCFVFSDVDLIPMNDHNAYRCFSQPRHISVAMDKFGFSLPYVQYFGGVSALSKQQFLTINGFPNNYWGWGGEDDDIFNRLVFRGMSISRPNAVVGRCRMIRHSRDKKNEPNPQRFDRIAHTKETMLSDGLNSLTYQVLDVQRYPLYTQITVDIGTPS
Sequence of UniProt Q03431 (whole entry, looked up): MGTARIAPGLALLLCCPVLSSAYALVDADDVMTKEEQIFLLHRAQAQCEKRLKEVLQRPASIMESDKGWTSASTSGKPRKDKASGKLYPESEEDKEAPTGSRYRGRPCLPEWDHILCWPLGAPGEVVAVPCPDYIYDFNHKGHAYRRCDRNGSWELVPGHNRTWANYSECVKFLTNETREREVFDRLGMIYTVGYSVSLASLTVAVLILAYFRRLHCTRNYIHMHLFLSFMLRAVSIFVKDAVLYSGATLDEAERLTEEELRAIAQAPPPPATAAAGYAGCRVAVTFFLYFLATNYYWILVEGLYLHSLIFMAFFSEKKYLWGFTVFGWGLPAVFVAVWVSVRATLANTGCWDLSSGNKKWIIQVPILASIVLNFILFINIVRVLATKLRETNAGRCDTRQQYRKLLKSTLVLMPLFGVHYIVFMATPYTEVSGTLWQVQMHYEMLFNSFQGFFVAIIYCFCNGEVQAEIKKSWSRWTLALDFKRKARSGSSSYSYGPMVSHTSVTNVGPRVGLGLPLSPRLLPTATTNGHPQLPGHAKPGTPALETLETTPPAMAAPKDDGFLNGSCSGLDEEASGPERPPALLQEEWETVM
Sequence of UniProt P56373 (whole entry, looked up): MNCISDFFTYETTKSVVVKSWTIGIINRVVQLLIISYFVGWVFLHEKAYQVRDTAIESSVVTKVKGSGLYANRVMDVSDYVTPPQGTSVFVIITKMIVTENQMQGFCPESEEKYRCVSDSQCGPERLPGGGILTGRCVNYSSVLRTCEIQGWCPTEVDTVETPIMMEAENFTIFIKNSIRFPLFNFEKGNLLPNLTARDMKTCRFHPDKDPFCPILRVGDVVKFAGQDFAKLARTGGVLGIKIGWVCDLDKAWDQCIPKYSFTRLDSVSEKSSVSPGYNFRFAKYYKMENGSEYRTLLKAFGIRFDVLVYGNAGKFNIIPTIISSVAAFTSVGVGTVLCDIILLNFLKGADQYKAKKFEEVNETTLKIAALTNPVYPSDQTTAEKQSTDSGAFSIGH

target | assay | system | conditions | scale | quantity | value | SMILES
GBA2 | inhibitor, 4MU-β-D-glucopyranoside | HEK293T homogenates overexpressing GBA2 |  | relative to: GCS IC50 over GBA2 IC50 | selectivity ratio | 1790 | OC[C@H]1[C@@H](O)[C@H](O)[C@@H](O)CN1CCCC/C=C\C12CC3CC(CC(C3)C1)C2
Parathyroid hormone/parathyroid hormone-related peptide receptor (PTH1R, Homo sapiens, UniProt Q03431) | cAMP response, agonist, GloSensor cAMP | GP-2.3 | washout phase |  | Emax | 158 ± 21% | CCCCCCCCCCCCCCCC(=O)N[C@@H](CCCNC(=N)N)C(=O)NCCCC[C@H](NC(=O)[C@H](C)NC(=O)[C@H](CCCCNC(=N)N)NC(=O)[C@H](CCC(N)=O)NC(=O)[C@H](Cc1c[nH]cn1)NC(=O)[C@H](CCCC)NC(=O)[C@H](CC(C)C)NC(=O)[C@H](CCC(N)=O)NC(=O)[C@@H](NC(=O)[C@H](CCC(=O)O)NC(=O)C(C)(C)NC(=O)[C@@H](NC(=O)C1(N)CCCC1)C(C)C)[C@@H](C)CC)C(N)=O
Alpha-1B adrenergic receptor (ADRA1B, Homo sapiens, UniProt P35368) | intracellular Ca2+ mobilization, agonist | COS-7 | 500 µM | relative to: 3 µM ionomycin | agonist activity | 2.65 ± 1.09% | Cc1cc2oc(=O)cc(Cn3ccnc3)c2cc1O
Isocitrate dehydrogenase [NADP] cytoplasmic (IDH1, Homo sapiens, UniProt O75874, R132C) |  |  | 1 h preincubation |  | maximum inhibition | 67 ± 4.4% | C[C@@H](Nc1nc(N[C@H](C)C(F)(F)F)nc(-c2cccc(Cl)n2)n1)C(F)(F)F
GBA2 | inhibitor, 4MU-β-D-glucopyranoside | HEK293T homogenates overexpressing GBA2 |  | relative to: GCS IC50 over GBA2 IC50 | selectivity ratio | 313 | OC[C@@H]1[C@@H](O)[C@H](O)[C@@H](O)CN1CCCCCOCc1ccc(-c2ccccc2)c(F)c1
CASP3 | enzyme activity, inhibitor |  |  |  | kinact/KI | 37500 M⁻¹ s⁻¹ | CC(=O)N1CCC[C@H]1C(=O)N[C@@H](CCC(N)=O)C(=O)N[C@@H](C)C(=O)N[C@@H](CC(=O)O)C(=O)COC(=O)c1c(C)cccc1C
P2X purinoceptor 3 (P2RX3, Homo sapiens, UniProt P56373) | ion current, agonist, whole-cell patch clamp | HEK293T | 10 µM |  | activation | 0.86% | CC(=O)C12NC(C)(C)CC1(C)C(=O)C1=C2c2c(c3c4n2C(C)(C)CC2=C4C4(CC(C)(C)NC(C)(C4)C2=O)CC3(C)C)C(=O)C(C)(C)N1 (single isomer, unassigned; (+))
TARDBP aggregated | radioligand binding | human, FTLD-TDP type B extract | together with: radioligand 37.19 nM |  | specific binding | 5.2 nM and 7.09 nM | O=C1c2sc(-c3ccc(N4CCC(CO)CC4)nc3F)nc2CCN1c1cccnc1
Cytoplasmic dynein 1 light intermediate chain 1 (DYNC1LI1, Homo sapiens, UniProt Q9Y6G9) | competitive isoTOP-ABPP | proteome, soluble, MDA-MB-231 | 100 µM, 60 min, together with: iodoacetamide probe | relative to: DMSO over compound-treated, higher = stronger cysteine blockade | isoTOP-ABPP competition ratio | 2.6 | CCCCCC(O)/C=C/C=O (stereo not drawn)
GBA2 | inhibitor, 4MU-β-D-glucopyranoside | HEK293T homogenates overexpressing GBA2 |  | relative to: GCS IC50 over GBA2 IC50 | selectivity ratio | 125 | OC[C@@H]1[C@@H](O)[C@H](O)[C@@H](O)CN1CCCCCOCC1CCCCC1
CASP3 | enzyme activity, inhibitor |  |  |  | kinact/KI | 80500 M⁻¹ s⁻¹ | CC(=O)N[C@@H](Cc1ccc(N)cc1)C(=O)N[C@@H](CCCC(=O)O)C(=O)N[C@@H](CC1CCCCC1)C(=O)N[C@@H](CC(=O)O)C(=O)COC(=O)c1c(C)cccc1C
GBA2 | inhibitor, 4MU-β-D-glucopyranoside | HEK293T homogenates overexpressing GBA2 |  | relative to: GBA1 IC50 over GBA2 IC50 | selectivity ratio | 250 | COc1ccc(-c2ccc(COCCCCCN3C[C@H](O)[C@@H](O)[C@H](O)[C@H]3CO)cc2)cc1
Vasodilator-stimulated phosphoprotein, EVH1 domain (VASP, Homo sapiens, UniProt P50552) | fluorescence titration |  | 25 °C |  | binding free energy | -8.77 kcal/mol | CC(=O)NC(Cc1ccccc1Cl)C(=O)N1CCCC1C(=O)N1CCCC1C(=O)N1CCC2C=CC3C(C)CC(C(=O)O)N3C(=O)C21 (stereo not drawn)
Bromodomain adjacent to zinc finger domain protein 2A (BAZ2A, Homo sapiens, UniProt Q9UIF9) | acetylated peptide binding, inhibitor, AlphaScreen competition |  | 500 µM |  | residual binding | 3% | CCc1ccc2nc(-c3cnnn3C)[nH]c2c1
Interleukin-1 receptor-like 2 (IL1RL2, Homo sapiens, UniProt Q9HB29) | reporter gene (SEAP), inhibitor, HEK-Blue IL-36R reporter | HEK-Blue IL-36R cells | 0.41 µM, 6 h, together with: IL-36β 1 ng/mL |  | remaining activity | 79.5% | CC(C)[C@@H]1NC(=O)[C@H](Cc2ccccc2)NC(=O)CSC[C@@H](C(N)=O)NC(=O)[C@H](CCC(=O)O)NC(=O)[C@H](CO)NC(=O)[C@H](Cc2c[nH]c3cccc(Cl)c23)NC(=O)[C@H](C2CCCCC2)NC(=O)[C@H](C(C)C)NC(=O)[C@H](Cc2ccc(O)cc2)NC(=O)[C@H](CC(=O)O)NC(=O)[C@H](Cc2c[nH]c3ccccc23)NC(=O)[C@H](Cc2ccc(N)nc2)NC(=O)[C@H](Cc2c[nH]c3ccc(Cl)cc23)NC(=O)[C@H](CCC(=O)O)NC1=O
Transient receptor potential cation channel subfamily A member 1 (TRPA1, Homo sapiens, UniProt O75762, M912A) | calcium influx, agonist |  |  | relative to: M912A mutant over wild type | EC50 fold change | 24.7 | O=C(NC[C@@H](Cc1ccc(F)cc1)N1CCC(O)(C(F)(F)F)CC1)C1(c2ccc(Cl)cc2)CCCC1
TARDBP aggregated | radioligand binding | human, FTLD-TDP type B sarkosyl-insoluble extract | 9.68 nM |  | specific binding | 0.722 nM and 0.542 nM | O=C1c2sc(-c3ccc(N4CCC(F)C4)nc3F)nc2CCN1c1cccnc1 (stereo not drawn)
CASP3 | enzyme activity, inhibitor |  |  |  | kinact/KI | 9500 M⁻¹ s⁻¹ | CC(=O)N[C@@H](Cc1ccc(O)cc1)C(=O)N1CSC[C@H]1C(=O)N[C@@H](C)C(=O)N[C@@H](CC(=O)O)C(=O)COC(=O)c1c(C)cccc1C
Lysophospholipase-like protein 1 (LYPLAL1, Homo sapiens, UniProt Q5VWZ2) | enzyme activity, activator, gel-based ABPP | purified protein | concentration not given, together with: FP-rhodamine | relative to: DMSO | probe labeling increase | 1.6 fold | NC(=O)c1cccc(S(=O)(=O)n2nc(SCc3ccc(Cl)cc3)nc2N)c1
GBA2 | inhibitor, 4MU-β-D-glucopyranoside | HEK293T homogenates overexpressing GBA2 |  | relative to: GCS IC50 over GBA2 IC50 | selectivity ratio | 3 | OC[C@@H]1[C@@H](O)[C@H](O)[C@@H](O)CN1CCCCCOCc1ccc2ccccc2c1
T1, hairpin RNA, UUCG tetraloop capped P1 | 1H NMR titration |  | together with: KCl 50 mM |  | binding | binds weakly | NC[C@H]1O[C@H](O[C@H]2[C@H](O)[C@@H](O[C@H]3O[C@H](CO)[C@@H](O)[C@H](N)[C@H]3O)[C@H](N)C[C@@H]2N)[C@H](N)C[C@@H]1O
GBA2 | inhibitor, 4MU-β-D-glucopyranoside | HEK293T homogenates overexpressing GBA2 |  | relative to: GCS IC50 over GBA2 IC50 | selectivity ratio | 50 | Cc1cccc(-c2ccc(COCCCCCN3C[C@H](O)[C@@H](O)[C@H](O)[C@H]3CO)cc2)c1
Tyrosine-protein kinase JAK2 (JAK2, Homo sapiens, UniProt O60674) | ADP-Glo kinase |  |  | relative to: IC50 JAK1 over IC50 JAK2 | selectivity ratio | > 73.2 | Cc1cnc(Nc2ccc3c(c2)CCN(C(=O)/C=C/C(=O)c2ccc(Cl)cc2)C3)nc1-c1cnn(C(C)C)c1
GBA2 | inhibitor, 4MU-β-D-glucopyranoside | HEK293T homogenates overexpressing GBA2 |  | relative to: GCS IC50 over GBA2 IC50 | selectivity ratio | 2310 | OC[C@H]1[C@@H](O)[C@H](O)[C@@H](O)CN1CCCCOCCC12CC3CC(CC(C3)C1)C2
Beta-1,4-galactosyltransferase 1 (B4GALT1, Homo sapiens, UniProt P15291) | enzyme activity, inhibitor, UDP-Glo |  | 10 µM | lower means stronger inhibition | luminescence | 67500 a.u. | CC(C)CC(NC(=O)N1CC(=O)Nc2ccccc21)C(=O)O (stereo not drawn)
GBA2 | inhibitor, 4MU-β-D-glucopyranoside | HEK293T homogenates overexpressing GBA2 |  | relative to: GBA1 IC50 over GBA2 IC50 | selectivity ratio | 500 | OC[C@@H]1[C@@H](O)[C@H](O)[C@@H](O)CN1CCCCCOCc1ccc(-c2ccnc(F)c2)cc1
Nucleophosmin (NPM1, Homo sapiens, UniProt P06748) | analytical ultracentrifugation |  | 20 °C, 4-fold molar excess |  | complex mass | ≤ 1.5 MDa | N=C(N)NCCC[C@H](NC(=O)[C@@H]1CCCN1C(=O)[C@H](CCCNC(=N)N)NC(=O)[C@@H]1CCCN1C(=O)[C@H](CCCNC(=N)N)NC(=O)[C@@H]1CCCN1C(=O)[C@H](CCCNC(=N)N)NC(=O)[C@@H]1CCCN1C(=O)[C@H](CCCNC(=N)N)NC(=O)[C@@H]1CCCN1C(=O)[C@H](CCCNC(=N)N)NC(=O)[C@@H]1CCCN1C(=O)[C@H](CCCNC(=N)N)NC(=O)[C@@H]1CCCN1C(=O)[C@H](CCCNC(=N)N)NC(=O)[C@@H]1CCCN1C(=O)[C@H](CCCNC(=N)N)NC(=O)[C@@H]1CCCN1C(=O)[C@H](CCCNC(=N)N)NC(=O)[C@@H]1CCCN1C(=O)[C@H](CCCNC(=N)N)NC(=O)[C@@H]1CCCN1C(=O)[C@H](CCCNC(=N)N)NC(=O)[C@@H]1CCCN1C(=O)[C@H](CCCNC(=N)N)NC(=O)[C@@H]1CCCN1C(=O)[C@H](CCCNC(=N)N)NC(=O)[C@@H]1CCCN1C(=O)[C@H](CCCNC(=N)N)NC(=O)[C@@H]1CCCN1C(=O)[C@H](CCCNC(=N)N)NC(=O)[C@@H]1CCCN1C(=O)[C@H](CCCNC(=N)N)NC(=O)[C@@H]1CCCN1C(=O)[C@H](CCCNC(=N)N)NC(=O)[C@@H]1CCCN1C(=O)[C@H](CCCNC(=N)N)NC(=O)[C@@H]1CCCN1C(=O)[C@H](CCCNC(=N)N)NC(=O)[C@@H]1CCCN1C(=O)[C@H](CCCNC(=N)N)NC(=O)[C@@H]1CCCN1C(=O)[C@H](CCCNC(=N)N)NC(=O)[C@@H]1CCCN1C(=O)[C@H](CCCNC(=N)N)NC(=O)[C@@H]1CCCN1C(=O)[C@H](Cc1ccc(O)cc1)NC(=O)[C@H](CO)NC(=O)CN)C(=O)O
